Measured values of several laboratories.
Every numbered part comes from another study and shows a few of its results, in no order.

Series 1
Target: Interferon regulatory factor 3, full length, phosphomimetic (IRF3, Homo sapiens, UniProt Q14653, residues 1-427, S386D/S396D/S398D/S402D/T404D/S405D)
UniProt Q14653, sequence (whole entry, unmodified, looked up): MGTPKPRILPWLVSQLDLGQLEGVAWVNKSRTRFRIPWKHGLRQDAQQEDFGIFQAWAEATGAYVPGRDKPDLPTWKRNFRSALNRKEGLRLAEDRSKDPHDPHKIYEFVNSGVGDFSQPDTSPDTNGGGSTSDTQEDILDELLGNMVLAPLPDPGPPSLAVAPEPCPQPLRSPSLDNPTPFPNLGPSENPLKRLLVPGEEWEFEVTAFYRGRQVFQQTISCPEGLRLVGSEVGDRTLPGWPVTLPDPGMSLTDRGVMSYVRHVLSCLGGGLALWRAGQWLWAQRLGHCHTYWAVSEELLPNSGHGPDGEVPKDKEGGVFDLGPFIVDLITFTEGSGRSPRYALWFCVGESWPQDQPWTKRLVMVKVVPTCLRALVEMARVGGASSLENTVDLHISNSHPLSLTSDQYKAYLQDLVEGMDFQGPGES
Technique: protein-binding microarray
Molecule type: double-stranded DNA, one strand shown
Matrix: in vitro
Tested at: 2540 nM top
Setting: 60-bp whole probe
Added: salmon DNA 0.4 mg/ml
Relative to: random background probes
Direction: higher = stronger binding
Constant ends, left off below: GCCTAGCAC … GTCTTGATTCGCTTGACGCTGCTG
Oligonucleotide	fitted relative affinity
GCCATTGTGGGTCTTGCAGAGTGCTAG	-0.71 z-score
GAAGGTTTCGGTTCCGGGACGTGCTAG	10.8 z-score
GGCGGTCTCCTACTGCTGACGTGCTAG	1.02 z-score
TTAGACCTCAGTCTCGATTAGTGCTAG	-0.114 z-score
TCAGTCACCCATCTCAGACTGTGCTAG	1.5 z-score
TTTGGACTGGGTATCGGTTAGTGCTAG	0.307 z-score
TTCGAACTGGGGACTGGATTAGTGCTA	-0.476 z-score
TTAGGTCTCCTATTCCTTTAGTGCTAG	2.32 z-score
CTAGATCTCAGTTTCGATTAGTGCTAG	3.5 z-score

Series 2
Target: Histone acetyltransferase KAT6A, winged helix 1, GST fusion (KAT6A, Homo sapiens, UniProt Q92794, residues 1-85)
Technique: protein binding microarray
Molecule type: double-stranded DNA, one strand shown
Matrix: in vitro
Tested at: not given
Setting: 8-mer, flanks averaged, mean of 2 arrays, mostly near background
Relative to: not given
Direction: higher = stronger binding
Target sequence (chain): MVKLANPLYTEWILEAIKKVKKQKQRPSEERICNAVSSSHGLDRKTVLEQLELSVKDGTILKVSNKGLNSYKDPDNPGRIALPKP
Oligonucleotide	E-score
AGGGGGCC	-0.0322
AGCGCAAG	0.166
ACCTAGCG	0.239
ATGGAGCC	-0.102
GTAATCGA	-0.0582
CATGGCCA	-0.19
ACTTAAGC	0.0909
AAATCTAG	-0.0715

Series 3
Target: RING finger protein unkempt homolog, zinc fingers 1-6, SBP tag (UNK, Homo sapiens, UniProt Q9C0B0, residues 30-357)
UniProt Q9C0B0, sequence (30-357, looked up): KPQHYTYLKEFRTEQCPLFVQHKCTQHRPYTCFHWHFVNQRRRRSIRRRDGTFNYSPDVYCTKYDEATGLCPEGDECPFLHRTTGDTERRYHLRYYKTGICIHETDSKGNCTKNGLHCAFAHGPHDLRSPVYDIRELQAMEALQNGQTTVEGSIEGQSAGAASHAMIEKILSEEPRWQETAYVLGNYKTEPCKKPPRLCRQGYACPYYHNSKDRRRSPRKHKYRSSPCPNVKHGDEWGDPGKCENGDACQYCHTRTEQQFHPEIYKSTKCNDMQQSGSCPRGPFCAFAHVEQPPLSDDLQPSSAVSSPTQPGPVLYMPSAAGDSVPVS
Technique: RNA Bind-n-Seq
Molecule type: RNA
Matrix: in vitro
Tested at: 100 nM
Setting: RNA with constant flanks, vertebrate orthologous sites, ends assumed
Relative to: input RNA pool
Direction: higher = stronger binding
Constant ends, left off below: GGGAGUUCUACAGUCCGACGAUC … CAACAGAGGAUUGAGCAUCA
Oligonucleotide	bound/input enrichment
GGCCUCCAACAGGCAAAUUCAGGGAGGAUAGGUUUCAGGGAAUAUAAAUUUAUUUAAUAUUAGUGGUCUUUAAGUAUAAACUUGAUGUAAUUGGUUUGGGAGGGGGCAGUGAUGAUGACU	1.4 ratio
UAAGAACUCUUGCAGUCUUAGAUGUUAUAAAAAAAUAUGUAUCUGAAUUGUAAGAGUUAUUAGUUUUUUUUUUUAAGCACUUGUUUUGGGUACAAGGCAUUUCUUUACUGAAAUUUUAUA	0.569 ratio
GCAAUGAAAAUACAGCCCUUCUCCCAGCCCCUUUUUUACUAGGAGAUACAAACGUUACCAUAGAAGAGCAAUUAAACUCAAUAAAUUUAUCUUUUCAGGAUGAUCCAGACUCCAGUACCA	1.72 ratio
GUCCUUUCGCUCAGUCCCCGGCCAGGGUGGCGGGGCCAAGGUUUCACCUAGGAACCGCAUUUCAAAAAAAAAUUGUUUUUAAUUGUGGUACAGGAAGCGACGUUGCUGAAACAGCCUCUG	0.245 ratio
UUCAACACCACUGGGUGGAAGGAUGAGGAUGGAGCGGCCAUCAUAGCUAGAAAGGGUCCAUCUUUGUUCCCAUUUGCAUCAUCAUCCCCAGAUCAAGGUGGCAGCAGAUUUCUCCCUACC	0.318 ratio
AACAAACACGUUUCCACUGGGUUUUGCCUGAAAAAAAAAAAAAAAAUGUACCCGAGCACAUAGAGCUUUUUAAUAGCACUAACCAAUGCCUUUUUAGAUGUAUUUUUGAUGUAUAUAUCU	1.1 ratio
GGUUGAUGUUUUGAAGAACCACUUAGUAAAAGAAGGUCGGGUAGAUGAAGAAAUUGCACUUAGAAUUAUCAAUGAGGGUGCUGCCAUUCUUCGGAGAGAGAAAACCAUGAUAGAAGUAGA	0.815 ratio
AUUCAUCUCUUUUUAUAUGUCCGAAAACGGCCGAGCUUUUCAGCAGUGGCUGGCUUGGCCGACUCUGCCGUCCCUGGCAGAGCGUUGUUACUGUUGCUCCUUAGCAGCUGCUGCCUGGUG	0.627 ratio
AAUUGAACAAAAGCGUUUCCACUGGGUUUUGCCUGUAAGAAAAAAAUGUACCCGAGCACAUAGAGCUUUUUAAUAGCGCUAACCAAUGCCUUUUUAGAUGUAUUUUUGAUGUAUAUAUCU	0.659 ratio
CUCCGCUGAACCCCAUUUCUUCUGUUUCAUAGUGCAGAAGUAUUCUUUCAACUAUAUUUUUAGUGGACUUGUUUUAAUUUUAGAGGAAUUUCCAGUACAGAUGCUGUGAGCUGACAUGGA	1.39 ratio

Series 4
Substance: PhoQ, residues 284 288 289 292 302 303 SNSSNI
Technique: Sort-seq
Refers to: YFP reporter
Matrix: E. coli
Setting: PhoQ-PhoP variant library
Added: 10 µM Mg2+
Relative to: high Mg2+ state
Direction: higher = stronger signaling
target	fold induction
PhoP, residues 12 14 15 18 19 QYFSL (Escherichia coli, UniProt P23836)	4.94
PhoP, residues 12 14 15 18 19 NYFRM (Escherichia coli, UniProt P23836)	6.46
PhoP, residues 12 14 15 18 19 TQALL (Escherichia coli, UniProt P23836)	2.87

For quick reference, copied from above (series 1):
Oligonucleotide	fitted relative affinity
GAAGGTTTCGGTTCCGGGACGTGCTAG	10.8 z-score
TTAGGTCTCCTATTCCTTTAGTGCTAG	2.32 z-score
TTCGAACTGGGGACTGGATTAGTGCTA	-0.476 z-score
TCAGTCACCCATCTCAGACTGTGCTAG	1.5 z-score
GCCATTGTGGGTCTTGCAGAGTGCTAG	-0.71 z-score
